Assay results of several laboratories.
Each line is one published result; not all experiments were run side by side. Numbers after ± are the reported error.

`Cc1cc(/C=C/C#N)cc(C)c1Oc1nc(NC2CCN(Cc3ccc(P(C)(C)=O)cc3)CC2)nc2ccsc12` gave an AUC(0-inf) of 1300 ± 322 ng·h/mL (male Sprague-Dawley rats, plasma; oral, 10 mg/kg).
`N=C(N)NCCC[C@H](NC(=O)[C@@H]1CCCN1C(=O)[C@H](Cc1ccccc1)NC(=O)[C@@H]1CCCN1C(=O)[C@H](Cc1c[nH]cn1)NC(=O)[C@@H](N)Cc1ccccc1)C(=O)O` gave an AUC(0-inf) of 99.4 ± 28.9 ng·h/mL (Sprague-Dawley rat male, plasma; oral gavage, 50 mg/kg).
With `COC(=O)/C=C/C(=O)c1ccc(OC)cc1` the AUC(0-inf) was 2120 ± 269 ng·h/mL (Sprague-Dawley rat, both sexes, plasma; oral, 200 mg/kg).
`C#Cc1cccc(Nc2ncnc3cc(OC)c(OCCCN4CCOCC4)cc23)c1` gave an AUC(0-inf) of 21200 ± 4830 ng·h/mL (Sprague-Dawley rat, plasma; oral, 40 mg/kg).
The AUC(0-inf) of `O=C(O)/C=C/c1cccc(S(=O)(=O)Nc2ccccc2)c1` is reported as 10000 ng·h/mL (patients with moderate liver dysfunction, plasma; intravenous, 400 mg/m^2 belinostat, single 30 min infusion, cycle 1 day -7, mean).
The AUC(0-inf) of `Cc1cc(O)c2c(c1)C(=O)c1cc(O)cc(O)c1C2=O.Cc1cc(O)c2c(c1)C(=O)c1cc(O)cc(O)c1C2=O.Cc1nc(C)c(C)nc1C` is reported as 27200 ± 23200 ng·h/mL (Sprague Dawley rat, plasma; oral, 100 mg/kg).
`NC(=O)c1cnc2[nH]ccc2c1NC1C2CC3CC1CC(OS(=O)(=O)O)(C3)C2` (centres unmarked) has an AUC(0-inf) of 2490 ng·h/mL (Japanese adults, moderate hepatic impairment, plasma; oral, 150 mg single dose, fasting, Child-Pugh B).
`C=C(c1ncc(C(=O)O)cn1)c1cc2c(cc1C)C(C)(C)CCC2(C)C` gave an AUC(0-inf) of 84000 ng·h/mL (rat, Sprague-Dawley, male, plasma; oral, 100 mg/kg, sesame oil vehicle).
The AUC(0-inf) of `COc1cc2oc(-c3ccc(O)cc3)cc(=O)c2c(O)c1[C@@H]1O[C@H](CO)[C@@H](O)[C@H](O)[C@H]1O[C@@H]1O[C@H](CO)[C@@H](O)[C@H](O)[C@H]1O` is reported as 79.9 ± 37.8 ng·h/mL (male Sprague-Dawley rat, normal, plasma; oral, 6.8 g/kg).
`CC(C)CNC(=O)/C=C/CCc1ccc2c(c1)OCO2` has an AUC(0-inf) of 115 ± 44.9 ng·h/mL (rat, sham-operated, plasma; oral, 50 mg/kg).
`NC(=O)/C=C/c1cccc(S(=O)(=O)Nc2ccccc2)c1` has an AUC(0-inf) of 17600 ng·h/mL (patients with moderate liver dysfunction, plasma; intravenous, 400 mg/m^2 belinostat, single 30 min infusion, cycle 1 day -7, mean).
The AUC(0-inf) of `Oc1ccc2ccccc2c1/N=N/c1ccccc1` is reported as 1150 ng·h/mL (Sprague-Dawley rats both sexes, whole blood; oral, 50 mg/kg).
`CC(C)(C)C(=O)Nc1ccc2[nH]c(CN3CCC(N(CCCN4CCOCC4)CC4OC(n5cnc6c(N)ncnc65)C(O)C4O)CC3)nc2c1` (centres unmarked) has an AUC(0-inf) of 2820 ± 649 ng·h/mL (Sprague-Dawley rat male, plasma; intravenous, 20 mg/kg).
`CN1CCN(c2ccc(Nc3ncc(Cl)c(Nc4ccccc4P(C)(C)=O)n3)cc2Br)CC1` has an AUC(0-inf) of 6750 ng·h/mL (male Sprague-Dawley rat, plasma; oral, 25 mg/kg).
`COc1cc2ncnc(Oc3ccc(Nc4nccc5[nH]cc(-c6ccc(F)cc6)c(=O)c45)cc3F)c2cc1OC` has an AUC(0-inf) of 421000 ng·h/mL (Sprague-Dawley rat, plasma; intravenous, 5 mg/kg).
The AUC(0-inf) of `Cc1ccc(/N=N/c2c(O)ccc3ccccc23)c(C)c1` is reported as 2970 ng·h/mL (Sprague-Dawley rats both sexes, whole blood; oral, 50 mg/kg).
`Cn1cc(C(N)=O)c(NC2C3CC4CC2CC(O)(C4)C3)c2ccnc1-2` (centres unmarked) has an AUC(0-inf) of 1350 ng·h/mL (Japanese adults, moderate hepatic impairment, plasma; oral, 150 mg single dose, fasting, Child-Pugh B).

Excerpt of the above:
`N=C(N)NCCC[C@H](NC(=O)[C@@H]1CCCN1C(=O)[C@H](Cc1ccccc1)NC(=O)[C@@H]1CCCN1C(=O)[C@H](Cc1c[nH]cn1)NC(=O)[C@@H](N)Cc1ccccc1)C(=O)O` gave an AUC(0-inf) of 99.4 ± 28.9 ng·h/mL (Sprague-Dawley rat male, plasma; oral gavage, 50 mg/kg).
With `COC(=O)/C=C/C(=O)c1ccc(OC)cc1` the AUC(0-inf) was 2120 ± 269 ng·h/mL (Sprague-Dawley rat, both sexes, plasma; oral, 200 mg/kg).
`C#Cc1cccc(Nc2ncnc3cc(OC)c(OCCCN4CCOCC4)cc23)c1` gave an AUC(0-inf) of 21200 ± 4830 ng·h/mL (Sprague-Dawley rat, plasma; oral, 40 mg/kg).
